Measurements collected from several papers.
A part holds a random share of what one study measured. Changes are numbered by the printed parent chain.

Series 1 — target: CCNB2, cyclin fold, Cln2 fusion (human); technique: yeast growth competition, sequencing; medium: yeast; setting: weak parent motif; baseline: not given; reading: higher = stronger binding
Starting sequence: E2F1 docking peptide (human); PPVKRRLDLETDH; partner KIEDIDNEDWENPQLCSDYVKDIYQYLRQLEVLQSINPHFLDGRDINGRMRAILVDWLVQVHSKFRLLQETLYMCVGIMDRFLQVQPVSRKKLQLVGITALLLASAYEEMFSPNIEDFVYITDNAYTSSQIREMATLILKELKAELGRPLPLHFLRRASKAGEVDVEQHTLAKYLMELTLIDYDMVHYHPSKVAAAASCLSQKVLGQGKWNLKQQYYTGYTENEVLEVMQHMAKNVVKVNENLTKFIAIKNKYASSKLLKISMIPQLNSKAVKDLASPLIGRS
Substitution | normalised enrichment score
E10G | 0.783
P2G | 0.087
T11V | 0.223
K4D | -0.216
D12Q | 0.855
R6A | -0.0812
V3K | 0.547
D8W | 0.613
E10T | 0.319
D12T | 0.0828
P1H | 0.65
E10C | 0.6
V3Y | 0.242
R5Q | -0.139
E10Y | 0.187
R5F | -0.0306
L9F | 3.6
T11H | 0.269
L7R | -0.102
K4M | 0.478
R5D | 0.0638
V3T | 0.14
P1E | 0.182

Series 2 — technique: protein binding microarray; molecule type: double-stranded DNA, one strand shown; medium: in vitro; concentration: not given; baseline: not given; reading: higher = stronger binding
Target: Histone acetyltransferase KAT6A, both winged helices, GST fusion (KAT6A, Homo sapiens, UniProt Q92794, residues 1-181)
Setting: 8-mer, flanks averaged, mean of 2 arrays, mostly near background
Residues (chain): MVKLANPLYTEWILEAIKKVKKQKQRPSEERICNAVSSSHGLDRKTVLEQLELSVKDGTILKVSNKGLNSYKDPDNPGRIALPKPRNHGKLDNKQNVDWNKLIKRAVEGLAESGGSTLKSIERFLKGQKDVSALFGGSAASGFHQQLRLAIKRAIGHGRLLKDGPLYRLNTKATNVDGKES
Oligonucleotide | E-score
CTCAGATA | -0.091
ACACATTG | 0.0371
CTTAACAA | 0.00123
CACTTCGC | -0.0101
AACTCTAC | -0.204
GAATTAAA | -0.0289
ATAGAAAG | 0.0225
GGGTGGTA | -0.149
CGAGCGCA | 0.221
CGAATTAC | 0.0402
CAATCATA | -0.0429
ACATATGT | 0.146
CACGCGAA | 0.193
AGACCAAA | -0.0457
CTTCGGGC | -0.0216
AAAGTGGA | -0.262
CTGGCGCC | -0.00664
ACACAGCA | 0.00535
CTTTAAAG | -0.184
CGCGCCAG | 0.316

Series 3 — technique: Sort-seq; refers to: YFP reporter; medium: E. coli; setting: PhoQ-PhoP variant library; added: 10 µM Mg2+; baseline: high Mg2+ state; reading: higher = stronger signaling
Substance: PhoQ, residues 284 288 289 292 302 303 ASTSDA
target | fold induction
PhoP, residues 12 14 15 18 19 VHTVL (Escherichia coli, UniProt P23836) | 11.9
PhoP, residues 12 14 15 18 19 ICWRQ (Escherichia coli, UniProt P23836) | 9.62
PhoP, residues 12 14 15 18 19 TQCLL (Escherichia coli, UniProt P23836) | 2.9

Series 4 — technique: DHFR PCA, deep sequencing; medium: yeast; added: (+)-ABA 0.032 µM; baseline: wild-type fitted maximum; reading: higher = stronger binding
Target: ABI1, truncated, D143A, DHFR fusion (Arabidopsis thaliana)
Setting: methotrexate growth selection, single substitutions
Starting sequence: PYL1, truncated, DHFR fusion (Arabidopsis thaliana); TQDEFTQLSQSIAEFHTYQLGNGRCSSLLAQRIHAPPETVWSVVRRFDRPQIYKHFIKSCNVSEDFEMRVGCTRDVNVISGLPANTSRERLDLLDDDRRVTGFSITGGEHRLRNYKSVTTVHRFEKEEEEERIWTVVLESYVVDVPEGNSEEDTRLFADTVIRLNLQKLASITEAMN
Substitution | relative binding score [%]
C25P | 0.77
S59T | 12.1
G81K | -1.95
D153C | -1.07
R123T | 18.6
R113K | 58.3
L156P | 1.53
W134S | 30.3
I172N | -11
V136Y | 3.36
I33R | 10.1
V121F | 1.81
S171E | 43.9
F47S | 21.7
W134T | 35
R132W | 4.84
R46D | -8.98

Series 5 — technique: protein-binding microarray; molecule type: double-stranded DNA, one strand shown; medium: in vitro; concentration: 940 nM top; setting: 60-bp whole probe; added: salmon DNA 0.4 mg/ml; baseline: random background probes; reading: higher = stronger binding; all sequences stand within: GCCTAGCAC … GTCTTGATTCGCTTGACGCTGCTG
Target: Interferon regulatory factor 5, full length, phosphomimetic (IRF5, Homo sapiens, UniProt Q13568-2, residues 1-514, S451D/S453D/S456D/S462D)
Oligonucleotide | fitted relative affinity [z-score]
AGACAAGCATTTGGTGATGCGTGCTAG | -0.459
ATCATTTTCTCTGTTCTAGAGTGCTAG | 2.32
TCATTTATAAATTATCTTACTGTGCTA | 0.824
TTAGCTATCAGTATCGATTAGTGCTAG | 4.52
TCATCTCTCTATTCAGAACTGTGCTAG | 1.34
GACGCTTTCGGGTTTCGAGACGTGCTA | 4.23
TTAGAGATCAGTTTCGATTAGTGCTAG | 8.15
GACGATCTCAGTTTCGAAACGTGCTAG | 4.94
ACTGATCACCGATTTCCTTCAGTGCTA | 0.208
TTTATTTATTTATTTATTTAGTGCTAG | 0.531
TCACATTTGATAAATCTTACTGTGCTA | 0.334
TTAGGTCTCGGTATCAGTTAGTGCTAG | 5.22
GACGGTTTGGACTATCGGGACGTGCTA | -0.443
GACAATATCAGACTGGAGACGTGCTAG | 0.00474
TCAAGTTTAATATCTAAGACTGTGCTA | -0.167
TCACCTCTAGGTCTTCTACTGTGCTAG | 0.288
GACAGTATCGGGACTGGGGACGTGCTA | 3.55
GGCGATATCGGGTATCGAGACGTGCTA | 0.811
GACGGTTTCCTTATCCTGACGTGCTAG | 1.76
GACGATATCGGGACAGGAGACGTGCTA | -0.323
TCACAAGTTTCACGTCTTACTGTGCTA | 1.63
GACGGTTTCCTTATCGTGACGTGCTAG | 1.55

Series 6 — technique: RNA Bind-n-Seq; molecule type: RNA; medium: in vitro; concentration: 365 nM; baseline: no-protein control; reading: higher = stronger binding
Target: RNA binding protein fox-1 homolog 2, RRM domain, GST-SBP tag (RBFOX2, Homo sapiens, UniProt O43251-10, residues 100-194)
Setting: natural RNA segment, single round, ends assumed
All sequences stand within: GGGAGUUCUACAGUCCGACGAUC … UGGAAUUCUCGGGUGCCAA
Construct (chain): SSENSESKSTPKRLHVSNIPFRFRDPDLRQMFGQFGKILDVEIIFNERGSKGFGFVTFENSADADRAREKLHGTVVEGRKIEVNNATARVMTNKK
Oligonucleotide | RBNS enrichment (R)
CCAUCAGUGAACAGAUUGCAUGGCCUUGGAGAGAGACUCUGGGCUUCUGGCUCAGAUGUGUGCAUCCUUUUAGAGCUGUUGUGGGUGUAAGUGACAUGAUGUGGCCAAAA | 1.35
UUUUUUUAAUCCUCCCAGUACUCCAGAGACAGAGACAGACCAGUCUCUGAGUUCAAGGCCAGCCUGAUCUUCAUAAUGAGCUCCAGACAACCAGGGCUAUCUAAGAAGCC | 0.456
AUUUGUGAGGAGGAGCCGAGGCCCCAGCUUCAUCCAGCUUCAACCAAUGCCUGGACCUGUCCACCUGAGAGGCCCCUGGGGCCUCCCCAGCUGCUGGCCAGACCCUGGCG | 0.145
GCACAAUUGAUAGUGUACCAAUAGAGGGAGACUGGGCGAUCUGGAACAGCACGUGGUGGGGUCCUGCUUGUGUGCUCUGCGUUCCUCUGUGGCGUGGCCAGGCCGGGGCA | 18.3
CCUCCACCUGUCCUCUGGGGGGGCCCUGAGAGGGAAGGAGAGGUUUCUCACACCAAGGCAGAUGCUCCUCUGGUGGGAGGGUGCUGGCCCUGGCAAGAUUGAAGGAUGUG | 0.473
UUUGUUUUCUUUUUUGUCUUGAAUGAAUUUUAAAAGGAAAUAUAUAAUAAAAAUGUUAACCAGAAGGUAAACUUGAGUGUAAUUGUCAGACAGACACACUUUUCCACCAG | 0.542
AAGACAACUUUACAUUUAAUGCUUCACUUAAUGAGACAUUCUUUUUUUUAUAAGUCUAUUUUUCUACUCAGUUUCAGAACACUAAUCUGAUUUUCACUCUGAUUUUUAAC | 0.604
CCCCUGAAAAUAUUUGCUUGUAAAUGAAAACUUAGCUAGGGCUUAAAUAAACAUGUUGCUAUGAAAUAUUUUUACUGUAUUGUUCUUUUUCCAAAUUGCAAGAGAAUGGC | 0.963
CCUUCUCUGGAACCACUCCAGCCCAGCUCCACCUCAGCCUUGGCCUUCACGCUGUGGAAGCAGCCAAGGCACUUCCUCACCCCCUCAGCGCCACGGACCUCUCUGGGGAG | 0.424
UUCCUGCAUUCAGGAUGUGAGGCCAUUUAAUAAAAAGGGCACAAAGCCUGUCAGAGUUUUCAACGGUGCUUAUAGCUGCCAGCUGGAUUCCAAACAGGUACCACAUUGUC | 0.208
GAUAGGAUGUUUUGUUUCCUUGAUAAAACAAAUGUAAAUGAGGAAUUUUAUUUGAAUUGGAAUAUUGUUUUUCUAGAGGACAUUCAUAUCUGCACUAUUAUCUGAUGACA | 1.19
GUGUUUUCUUCCAUUCCUUCUUACUGCCCUGUCCUCUGCCUUGGAAGAGGCUUUGGGAAUAGUUCAUAGGGAAGGGACAACAUGGAAGAAACAGCGAUUUAAAUUGUAUU | 0.221

Series 7 — target: CREBRF, bZIP domain (human); technique: DHFR protein complementation; medium: yeast; baseline: wild-type JUN-FOS pair; reading: higher = stronger binding
Setting: single substitutions, most at no-binding floor
Starting sequence: JUN, bZIP domain (human); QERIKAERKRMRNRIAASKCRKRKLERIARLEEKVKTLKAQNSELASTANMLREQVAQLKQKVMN; partner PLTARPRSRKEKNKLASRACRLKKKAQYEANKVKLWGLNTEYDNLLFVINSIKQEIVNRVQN
Substitution | binding fitness
V35S | -1.54 natural log
K34L | -1.49 natural log
K39L | -1.5 natural log
A29F | -1.52 natural log
L38T | -1.52 natural log
L31H | -1.46 natural log
R30H | -1.59 natural log
K36A | -1.48 natural log
A40L | -1.47 natural log
I28G | -1.52 natural log
L45Q | -1.51 natural log
N42S | -1.54 natural log
A46R | -1.41 natural log
E44D | -1.5 natural log
E33M | -1.47 natural log

A few entries again (series 2):
Oligonucleotide | E-score
CTTAACAA | 0.00123
ACACATTG | 0.0371
ACATATGT | 0.146
CTTTAAAG | -0.184
AAAGTGGA | -0.262
GGGTGGTA | -0.149
CAATCATA | -0.0429
CTCAGATA | -0.091
GAATTAAA | -0.0289
CACTTCGC | -0.0101
